Assay results collected from several papers.
Lines come from different studies, so protocols differ. ± marks the error that the study gave.
HLA class I histocompatibility antigen, A alpha chain allele A*24:02: HLA class I histocompatibility antigen, A alpha chain, allele A*24:02 (Homo sapiens, UniProt P04439)
HLA class I histocompatibility antigen, A alpha chain allele A*02:01: HLA class I histocompatibility antigen, A alpha chain, allele A*02:01 (Homo sapiens, UniProt P04439)
HLA class I histocompatibility antigen, A alpha chain allele A*01:01: HLA class I histocompatibility antigen, A alpha chain, allele A*01:01 (Homo sapiens, UniProt P04439)
HLA class I histocompatibility antigen, A alpha chain allele A*26:01: HLA class I histocompatibility antigen, A alpha chain, allele A*26:01 (Homo sapiens, UniProt P04439)
Sequence of UniProt Q9J546 (whole entry, looked up): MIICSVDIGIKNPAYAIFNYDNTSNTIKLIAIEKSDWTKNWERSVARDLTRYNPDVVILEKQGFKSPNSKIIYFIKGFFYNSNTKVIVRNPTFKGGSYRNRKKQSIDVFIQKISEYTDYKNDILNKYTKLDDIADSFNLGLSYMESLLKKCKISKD
Sequence of UniProt P03023 (whole entry, looked up): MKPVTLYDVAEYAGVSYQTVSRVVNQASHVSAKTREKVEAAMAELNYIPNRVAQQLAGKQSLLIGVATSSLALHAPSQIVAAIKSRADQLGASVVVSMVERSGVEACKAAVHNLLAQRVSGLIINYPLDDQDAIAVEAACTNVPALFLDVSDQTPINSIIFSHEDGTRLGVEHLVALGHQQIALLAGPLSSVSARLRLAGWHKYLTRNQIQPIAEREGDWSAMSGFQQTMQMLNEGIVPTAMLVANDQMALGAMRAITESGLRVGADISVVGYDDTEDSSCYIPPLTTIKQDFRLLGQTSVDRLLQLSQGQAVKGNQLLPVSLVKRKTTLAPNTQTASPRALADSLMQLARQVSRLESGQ
Sequence of UniProt Q12791 (whole entry, looked up): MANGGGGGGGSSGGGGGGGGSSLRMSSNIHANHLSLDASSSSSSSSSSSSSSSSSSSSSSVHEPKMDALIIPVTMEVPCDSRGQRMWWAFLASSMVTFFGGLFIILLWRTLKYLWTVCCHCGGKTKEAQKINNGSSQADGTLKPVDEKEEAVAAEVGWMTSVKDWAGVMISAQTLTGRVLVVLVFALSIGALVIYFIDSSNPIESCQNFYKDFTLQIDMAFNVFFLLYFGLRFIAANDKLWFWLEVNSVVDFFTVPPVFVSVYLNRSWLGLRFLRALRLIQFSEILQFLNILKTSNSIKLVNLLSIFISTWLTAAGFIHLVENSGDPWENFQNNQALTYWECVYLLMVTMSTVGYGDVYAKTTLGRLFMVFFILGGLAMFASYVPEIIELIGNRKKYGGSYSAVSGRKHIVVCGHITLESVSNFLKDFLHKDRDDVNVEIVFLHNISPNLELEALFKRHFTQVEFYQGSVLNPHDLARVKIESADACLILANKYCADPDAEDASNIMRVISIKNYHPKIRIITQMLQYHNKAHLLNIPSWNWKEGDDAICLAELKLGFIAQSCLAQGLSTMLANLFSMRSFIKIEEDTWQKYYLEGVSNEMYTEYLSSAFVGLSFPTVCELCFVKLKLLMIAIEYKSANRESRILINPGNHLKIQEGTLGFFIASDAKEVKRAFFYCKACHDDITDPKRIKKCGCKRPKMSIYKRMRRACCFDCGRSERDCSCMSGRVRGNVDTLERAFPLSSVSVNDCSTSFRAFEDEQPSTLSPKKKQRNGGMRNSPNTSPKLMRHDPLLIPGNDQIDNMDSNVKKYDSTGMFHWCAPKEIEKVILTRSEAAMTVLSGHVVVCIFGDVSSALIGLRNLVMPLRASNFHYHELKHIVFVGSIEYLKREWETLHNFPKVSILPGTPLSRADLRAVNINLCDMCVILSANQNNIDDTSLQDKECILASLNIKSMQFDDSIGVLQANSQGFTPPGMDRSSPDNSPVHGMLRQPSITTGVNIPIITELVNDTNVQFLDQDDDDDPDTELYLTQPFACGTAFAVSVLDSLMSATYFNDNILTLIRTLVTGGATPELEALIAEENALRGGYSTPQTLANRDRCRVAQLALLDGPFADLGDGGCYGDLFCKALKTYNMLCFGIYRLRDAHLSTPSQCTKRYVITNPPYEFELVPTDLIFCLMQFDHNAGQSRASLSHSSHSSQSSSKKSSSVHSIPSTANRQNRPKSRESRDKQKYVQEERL
Sequence of UniProt P28222 (whole entry, looked up): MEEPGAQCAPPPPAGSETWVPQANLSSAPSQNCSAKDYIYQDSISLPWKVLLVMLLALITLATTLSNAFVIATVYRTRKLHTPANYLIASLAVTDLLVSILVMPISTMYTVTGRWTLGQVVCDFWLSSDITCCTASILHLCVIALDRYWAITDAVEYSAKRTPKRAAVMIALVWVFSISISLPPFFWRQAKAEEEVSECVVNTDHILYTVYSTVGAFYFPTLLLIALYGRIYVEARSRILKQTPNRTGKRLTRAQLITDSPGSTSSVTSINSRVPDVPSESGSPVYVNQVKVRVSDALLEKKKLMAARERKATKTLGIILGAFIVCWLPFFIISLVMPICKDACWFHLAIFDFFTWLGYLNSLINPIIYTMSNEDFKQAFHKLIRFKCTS
Sequence of UniProt P28074 (whole entry, looked up): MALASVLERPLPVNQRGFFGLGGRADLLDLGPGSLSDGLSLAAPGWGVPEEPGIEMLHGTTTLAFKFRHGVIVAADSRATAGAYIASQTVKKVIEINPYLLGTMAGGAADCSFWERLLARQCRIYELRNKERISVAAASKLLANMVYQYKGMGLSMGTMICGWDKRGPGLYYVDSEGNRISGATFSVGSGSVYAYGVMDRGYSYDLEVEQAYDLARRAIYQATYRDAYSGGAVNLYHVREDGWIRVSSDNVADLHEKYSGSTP
Sequence of UniProt Q6B856 (whole entry, looked up): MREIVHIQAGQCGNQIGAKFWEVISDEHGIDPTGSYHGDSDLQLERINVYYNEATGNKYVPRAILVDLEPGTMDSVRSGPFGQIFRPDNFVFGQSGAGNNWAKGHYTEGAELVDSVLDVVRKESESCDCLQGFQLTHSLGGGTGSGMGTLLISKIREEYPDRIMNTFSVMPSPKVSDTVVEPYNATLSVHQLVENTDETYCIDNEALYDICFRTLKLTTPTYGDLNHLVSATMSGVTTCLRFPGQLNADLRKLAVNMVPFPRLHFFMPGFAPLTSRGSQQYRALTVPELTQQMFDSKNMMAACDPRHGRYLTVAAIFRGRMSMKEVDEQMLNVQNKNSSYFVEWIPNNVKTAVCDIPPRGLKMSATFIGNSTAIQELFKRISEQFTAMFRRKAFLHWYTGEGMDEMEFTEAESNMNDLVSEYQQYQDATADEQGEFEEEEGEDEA
Sequence of UniProt P97612 (whole entry, looked up): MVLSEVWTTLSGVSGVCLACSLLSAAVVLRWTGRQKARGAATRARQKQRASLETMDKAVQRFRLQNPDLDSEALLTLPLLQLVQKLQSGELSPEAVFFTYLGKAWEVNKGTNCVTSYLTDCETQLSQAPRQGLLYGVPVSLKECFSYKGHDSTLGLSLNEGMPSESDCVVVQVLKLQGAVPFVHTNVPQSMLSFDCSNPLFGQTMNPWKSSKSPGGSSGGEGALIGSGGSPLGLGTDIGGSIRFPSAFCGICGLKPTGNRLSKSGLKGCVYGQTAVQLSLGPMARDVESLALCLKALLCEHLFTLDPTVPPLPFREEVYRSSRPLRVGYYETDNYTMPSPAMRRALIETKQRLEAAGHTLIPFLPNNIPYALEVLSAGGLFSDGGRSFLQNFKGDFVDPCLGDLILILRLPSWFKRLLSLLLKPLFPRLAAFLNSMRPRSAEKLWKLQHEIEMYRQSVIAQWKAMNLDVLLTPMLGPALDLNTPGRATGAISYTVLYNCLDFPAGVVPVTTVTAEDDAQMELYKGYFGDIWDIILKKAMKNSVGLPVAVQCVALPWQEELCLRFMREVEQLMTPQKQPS
Sequence of UniProt Q9UBR2 (whole entry, looked up): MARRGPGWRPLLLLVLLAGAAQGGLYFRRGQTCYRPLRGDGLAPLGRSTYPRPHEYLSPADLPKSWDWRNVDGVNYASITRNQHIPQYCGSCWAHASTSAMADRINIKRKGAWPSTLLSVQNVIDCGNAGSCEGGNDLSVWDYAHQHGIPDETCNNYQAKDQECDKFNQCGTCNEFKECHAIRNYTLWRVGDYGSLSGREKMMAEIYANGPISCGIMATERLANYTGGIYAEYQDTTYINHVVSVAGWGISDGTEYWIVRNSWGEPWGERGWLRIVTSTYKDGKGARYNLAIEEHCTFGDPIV
Sequence of UniProt O75751 (whole entry, looked up): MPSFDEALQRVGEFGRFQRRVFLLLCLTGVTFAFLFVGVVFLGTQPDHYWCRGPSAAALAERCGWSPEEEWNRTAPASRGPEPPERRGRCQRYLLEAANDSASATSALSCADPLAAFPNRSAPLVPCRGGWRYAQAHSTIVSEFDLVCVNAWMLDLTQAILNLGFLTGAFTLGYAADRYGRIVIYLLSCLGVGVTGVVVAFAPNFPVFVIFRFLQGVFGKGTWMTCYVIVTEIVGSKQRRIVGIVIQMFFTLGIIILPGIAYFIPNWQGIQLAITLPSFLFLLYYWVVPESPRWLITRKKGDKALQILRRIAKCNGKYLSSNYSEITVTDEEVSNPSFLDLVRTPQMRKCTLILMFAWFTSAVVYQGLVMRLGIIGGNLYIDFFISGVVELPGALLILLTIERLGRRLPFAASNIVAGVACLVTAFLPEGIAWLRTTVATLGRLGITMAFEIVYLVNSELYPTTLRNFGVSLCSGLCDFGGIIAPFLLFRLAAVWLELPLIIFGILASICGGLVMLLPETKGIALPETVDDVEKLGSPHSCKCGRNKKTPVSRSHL
Sequence of UniProt P49720 (whole entry, looked up): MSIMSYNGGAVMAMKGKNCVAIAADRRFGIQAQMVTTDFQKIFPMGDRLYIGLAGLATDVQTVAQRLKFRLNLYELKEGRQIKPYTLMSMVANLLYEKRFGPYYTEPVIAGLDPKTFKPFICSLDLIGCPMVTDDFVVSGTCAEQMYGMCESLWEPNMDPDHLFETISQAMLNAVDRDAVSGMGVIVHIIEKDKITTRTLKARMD
Sequence of UniProt P20618 (whole entry, looked up): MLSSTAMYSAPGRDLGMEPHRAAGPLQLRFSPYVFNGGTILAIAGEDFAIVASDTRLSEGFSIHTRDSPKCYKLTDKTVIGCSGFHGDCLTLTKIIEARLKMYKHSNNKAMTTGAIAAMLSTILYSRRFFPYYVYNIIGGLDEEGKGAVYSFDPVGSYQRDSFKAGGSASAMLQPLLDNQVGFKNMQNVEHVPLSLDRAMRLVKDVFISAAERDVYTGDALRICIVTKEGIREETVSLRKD
Sequence of UniProt Q15370 (whole entry, looked up): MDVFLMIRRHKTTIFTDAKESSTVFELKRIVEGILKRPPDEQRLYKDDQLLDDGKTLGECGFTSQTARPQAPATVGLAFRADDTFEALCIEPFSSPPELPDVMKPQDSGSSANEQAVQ

SMILES	target	test	test system	conditions	IC50 [µM]
CC[C@H](C)[C@H](NC(=O)[C@@H]1CCCN1C(=O)[C@H](CO)NC(=O)[C@H](CCSC)NC(=O)[C@H](CCC(N)=O)NC(=O)[C@@H](N)CCCCN)C(=O)N[C@@H](Cc1c[nH]c2ccccc12)C(=O)N[C@H](C(=O)N[C@@H](Cc1ccc(O)cc1)C(=O)O)[C@@H](C)O	HLA class I histocompatibility antigen, A alpha chain allele A*24:02	binding			43.4
O=c1c(-c2ccccc2)c(O)c2cc(-c3cccc(-c4ccccc4)c3)cnc2n1O	Holliday junction resolvase (Fowlpox virus, UniProt Q9J546)				0.01
C[C@H]1CN(c2n[nH]c3nc(N[C@H]4CC[C@H](NS(=O)(=O)CCC(F)(F)F)CC4)ncc23)CCO1	Elongin-B (Homo sapiens, UniProt Q15370)	biochemical			≥ 20
O=C(OC(C(F)(F)F)C(F)(F)F)N1CCN(Cc2cccc(Oc3ccccc3)c2)CC1	Faah (Rattus norvegicus, UniProt P97612)	inhibitor		together with: FP-biotin 1 µM	4.74
Nc1c2c(nc3c1C(c1cccc([N+](=O)[O-])c1)c1ccc(OS(=O)(=O)c4ccc(F)cc4)cc1O3)CCCC2 (centres unmarked)	Beta-secretase 1 (BACE1, Homo sapiens, UniProt P56817)	enzyme activity, inhibitor			2.68
CC/C(=C(\c1ccccc1)c1ccc(OCCN(C)C)cc1)c1ccccc1	Phospholipase D1 (Homo sapiens, UniProt Q13393)	enzyme activity, inhibitor	human cells		> 50
O=C(CP(=O)(O)O)NO	enolase (mouse brain lysate)	enzyme activity, inhibitor			0.0497 ± 0.0035
O=CCc1ccccc1	uncharacterized protein (Drosophila suzukii, UniProt A0AB39ZCT4)	binding, bis-ANS competition fluorescence		pH 7.4, together with: bis-ANS	> 50
CCCCC/C=C\C/C=C\C/C=C\C/C=C\CCCC(=O)Nc1ccc(O)cc1	SCN9A (Homo sapiens, UniProt Q15858)	peak sodium current, inhibitor, whole-cell patch clamp	HEK293T	holding potential -80 mV	0.0219 ± 0.0027
CSCC[C@H](NC(=O)[C@@H](N)CCCCN)C(=O)N[C@@H](Cc1ccccc1)C(=O)N[C@@H](CC(=O)O)C(=O)N[C@@H](CCC(=O)O)C(=O)N[C@@H](Cc1ccccc1)C(=O)N[C@@H](Cc1c[nH]cn1)C(=O)N[C@H](C(=O)N[C@@H](Cc1ccc(O)cc1)C(=O)O)C(C)C	HLA class I histocompatibility antigen, A alpha chain allele A*02:01	binding			1.35
CNC(C)Cc1ccc2nsnc2c1 (centres unmarked)	SLC22A3 (Homo sapiens, UniProt O75751)				2410 ± 1340
CC[C@H](C)[C@H](NC(=O)[C@@H](N)CCCNC(=N)N)C(=O)N[C@@H](Cc1ccccc1)C(=O)NCC(=O)N[C@@H](Cc1c[nH]cn1)C(=O)N1CCC[C@H]1C(=O)N[C@@H](Cc1c[nH]cn1)C(=O)N[C@@H](CC(C)C)C(=O)N[C@@H](Cc1ccccc1)C(=O)O	HLA class I histocompatibility antigen, A alpha chain allele A*02:01	binding			8.48
CN(C)C(=O)C(CCN1CCC(O)(c2ccc(Cl)cc2)CC1)(c1ccccc1)c1ccccc1	Calcium-activated potassium channel subunit alpha-1, with LRRC26 γ1 subunit (KCNMA1, Homo sapiens, UniProt Q12791)	BK channel conductance, inhibitor, inside-out patch clamp		BKα/γ1, Vm 120 mV, nominally Ca2+-free	2.27 ± 0.39
CC(C)[C@H](NC(=O)[C@@H](NC(=O)[C@@H](NC(=O)[C@@H](NC(=O)[C@@H](NC(=O)[C@H](Cc1ccccc1)NC(=O)[C@H](CCC(=O)O)NC(=O)[C@@H](N)CC(=O)O)C(C)C)C(C)C)C(C)C)[C@@H](C)O)C(=O)O	HLA class I histocompatibility antigen, A alpha chain allele A*02:01	peptide-MHC binding, radioligand competition binding			13
COc1cc(Nc2ncc(F)c(Nc3ccc4c(n3)NC(=O)C(C)(C)O4)n2)cc(OC)c1OC	Cathepsin Z (Homo sapiens, UniProt Q9UBR2)				> 10
CC[C@H](C)[C@H](NC(=O)[C@H](Cc1c[nH]cn1)NC(=O)CNC(=O)[C@H](Cc1ccc(O)cc1)NC(=O)[C@H](CCC(N)=O)NC(=O)[C@@H](N)Cc1c[nH]cn1)C(=O)N[C@@H](CC(C)C)C(=O)N[C@@H](CCC(N)=O)C(=O)N[C@@H](Cc1ccc(O)cc1)C(=O)O	HLA class I histocompatibility antigen, A alpha chain allele A*01:01	binding			72.5
COc1cc(C2=CCCCc3c2ccc(OC)c3OC(=O)CCCCCN2C(=O)C=CC2=O)cc(OC)c1OC	Tubulin alpha-1B chain/TUBB2B (Bos taurus, UniProt P81947+Q6B856)	tubulin polymerization, inhibitor, turbidimetric		20 min, 30 °C, together with: tubulin 10 µM	3.8 ± 0.6
OC[C@H]1O[C@@H](OCCc2ccccc2)[C@H](O)[C@@H](O)[C@H]1O	lacI (Escherichia coli, UniProt P03023)	IPTG binding, competitor, nitrocellulose filter binding		repressor 2 µM monomer, no operator DNA, pH 7.4, together with: [14C]IPTG 250 nM	560
CSCC[C@H](NC(=O)[C@H](CCC(N)=O)NC(=O)[C@H](Cc1c[nH]cn1)NC(=O)[C@@H]1CCCN1C(=O)[C@H](Cc1ccccc1)NC(=O)[C@H](CCC(N)=O)NC(=O)[C@@H](N)Cc1ccccc1)C(=O)N[C@H](C(=O)N[C@@H](Cc1ccccc1)C(=O)O)[C@@H](C)O	HLA class I histocompatibility antigen, A alpha chain allele A*24:02	binding			3.1
COc1cc(C(=O)N2CC[C@@H](O)[C@@H](N)C2)cc2nc(-c3cc4ccccc4n3CC3CC3)n(C)c12	PIK3CG (Homo sapiens, UniProt P48736)	TR-FRET			> 31.6
CC(=O)N1CCC(C(=O)NCCc2cccs2)CC1	DNA repair protein REV1, C-terminal domain (Homo sapiens, UniProt Q9UBZ9)	REV1 C-terminal domain-RIR interaction, inhibitor, fluorescence polarization displacement			> 100
CSCC[C@H](NC(=O)[C@@H]1CCCN1C(=O)[C@H](CCCCN)NC(=O)[C@H](CC(=O)O)NC(=O)[C@H](Cc1c[nH]c2ccccc12)NC(=O)[C@H](CCC(N)=O)NC(=O)[C@@H](N)CCCCN)C(=O)N[C@@H](Cc1ccc(O)cc1)C(=O)N[C@@H](Cc1ccc(O)cc1)C(=O)O	HLA class I histocompatibility antigen, A alpha chain allele A*01:01	binding			74.9
CC(C)C[C@H](NC(=O)[C@@H](N)CCC(=O)O)C(=O)N1CCC[C@H]1C(=O)N[C@@H](CC(=O)O)C(=O)N[C@@H](CCC(=O)O)C(=O)N[C@@H](Cc1ccccc1)C(=O)N[C@H](C(=O)N[C@H](C(=O)N[C@H](C(=O)O)C(C)C)C(C)C)C(C)C	HLA class I histocompatibility antigen, A alpha chain allele A*26:01	peptide-MHC binding, radioligand competition binding			6.86
CSCC[C@H](NC(=O)[C@@H](N)Cc1ccc(O)cc1)C(=O)N[C@@H](CC(=O)O)C(=O)N[C@@H](CO)C(=O)N[C@@H](Cc1c[nH]cn1)C(=O)NCC(=O)N[C@@H](Cc1ccccc1)C(=O)N[C@@H](CO)C(=O)N[C@@H](Cc1ccccc1)C(=O)O	HLA class I histocompatibility antigen, A alpha chain allele A*24:02	binding			0.22
NCCOCC(=O)N1CCCC(C(=O)NCc2nc(-c3ccc(-c4ccc(F)cc4)cc3)cs2)C1 (centres unmarked)	PSMB1/PSMB5/PSMB3 (Homo sapiens, UniProt P20618+P28074+P49720)				> 30
CC(C)C[C@H](NC(=O)[C@H](CCC(N)=O)NC(=O)[C@H](Cc1ccccc1)NC(=O)[C@H](C)NC(=O)[C@H](CCCCN)NC(=O)[C@H](CC(=O)O)NC(=O)[C@H](CCC(=O)O)NC(=O)[C@H](CC(C)C)NC(=O)[C@@H](N)CO)C(=O)O	HLA class I histocompatibility antigen, A alpha chain allele A*26:01	peptide-MHC binding, radioligand competition binding			> 70
Cc1c(C2(c3ccc(C(F)(F)F)nc3)CC2)c[nH]c1C(=O)NC(C)c1c[nH]cn1 (centres unmarked)	Cytochrome P450 3A4 (CYP3A4, Homo sapiens, UniProt P08684)	enzyme activity, inhibitor			0.86
CSCC[C@H](NC(=O)[C@H](CO)NC(=O)[C@H](CC(C)C)NC(=O)[C@@H](NC(=O)[C@H](Cc1c[nH]cn1)NC(=O)[C@H](CCCCN)NC(=O)[C@H](Cc1ccccc1)NC(=O)[C@H](CCC(N)=O)NC(=O)[C@@H](N)CCCCN)[C@@H](C)O)C(=O)O	HLA class I histocompatibility antigen, A alpha chain allele A*02:01	binding			18.2
COc1ncccc1-c1cnn2ccc(N3CCN(C(=O)OC(C)C)CC3)nc12	HTR1B (Homo sapiens, UniProt P28222)	liability screen			> 30

For quick reference, copied from above:
SMILES	target	test	test system	conditions	IC50 [µM]
C[C@H]1CN(c2n[nH]c3nc(N[C@H]4CC[C@H](NS(=O)(=O)CCC(F)(F)F)CC4)ncc23)CCO1	Elongin-B (Homo sapiens, UniProt Q15370)	biochemical			≥ 20
CSCC[C@H](NC(=O)[C@H](CCC(N)=O)NC(=O)[C@H](Cc1c[nH]cn1)NC(=O)[C@@H]1CCCN1C(=O)[C@H](Cc1ccccc1)NC(=O)[C@H](CCC(N)=O)NC(=O)[C@@H](N)Cc1ccccc1)C(=O)N[C@H](C(=O)N[C@@H](Cc1ccccc1)C(=O)O)[C@@H](C)O	HLA class I histocompatibility antigen, A alpha chain allele A*24:02	binding			3.1
O=CCc1ccccc1	uncharacterized protein (Drosophila suzukii, UniProt A0AB39ZCT4)	binding, bis-ANS competition fluorescence		pH 7.4, together with: bis-ANS	> 50
COc1cc(C2=CCCCc3c2ccc(OC)c3OC(=O)CCCCCN2C(=O)C=CC2=O)cc(OC)c1OC	Tubulin alpha-1B chain/TUBB2B (Bos taurus, UniProt P81947+Q6B856)	tubulin polymerization, inhibitor, turbidimetric		20 min, 30 °C, together with: tubulin 10 µM	3.8 ± 0.6
CSCC[C@H](NC(=O)[C@@H]1CCCN1C(=O)[C@H](CCCCN)NC(=O)[C@H](CC(=O)O)NC(=O)[C@H](Cc1c[nH]c2ccccc12)NC(=O)[C@H](CCC(N)=O)NC(=O)[C@@H](N)CCCCN)C(=O)N[C@@H](Cc1ccc(O)cc1)C(=O)N[C@@H](Cc1ccc(O)cc1)C(=O)O	HLA class I histocompatibility antigen, A alpha chain allele A*01:01	binding			74.9
